Published values of several laboratories.
Each line is one published result; not all experiments were run side by side. “And” joins repeats or separate records; there may be more than shown. ± gives the spread as reported.
Chain of UniProt P05177 (whole entry, looked up): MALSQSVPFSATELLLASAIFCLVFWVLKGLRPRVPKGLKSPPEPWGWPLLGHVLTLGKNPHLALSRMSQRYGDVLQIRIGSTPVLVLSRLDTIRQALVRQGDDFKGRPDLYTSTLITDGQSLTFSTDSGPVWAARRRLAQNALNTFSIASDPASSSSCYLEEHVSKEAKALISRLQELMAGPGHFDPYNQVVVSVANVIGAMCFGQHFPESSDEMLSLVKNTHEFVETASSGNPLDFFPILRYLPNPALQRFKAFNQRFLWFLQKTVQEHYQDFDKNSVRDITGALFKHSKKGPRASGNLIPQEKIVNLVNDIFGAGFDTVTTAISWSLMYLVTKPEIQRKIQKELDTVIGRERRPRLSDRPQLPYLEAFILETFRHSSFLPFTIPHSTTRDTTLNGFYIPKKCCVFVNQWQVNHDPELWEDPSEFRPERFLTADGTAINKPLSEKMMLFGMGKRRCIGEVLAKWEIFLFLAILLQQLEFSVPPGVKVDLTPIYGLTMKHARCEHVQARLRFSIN
Chain of UniProt P00519 (whole entry, unmodified, looked up): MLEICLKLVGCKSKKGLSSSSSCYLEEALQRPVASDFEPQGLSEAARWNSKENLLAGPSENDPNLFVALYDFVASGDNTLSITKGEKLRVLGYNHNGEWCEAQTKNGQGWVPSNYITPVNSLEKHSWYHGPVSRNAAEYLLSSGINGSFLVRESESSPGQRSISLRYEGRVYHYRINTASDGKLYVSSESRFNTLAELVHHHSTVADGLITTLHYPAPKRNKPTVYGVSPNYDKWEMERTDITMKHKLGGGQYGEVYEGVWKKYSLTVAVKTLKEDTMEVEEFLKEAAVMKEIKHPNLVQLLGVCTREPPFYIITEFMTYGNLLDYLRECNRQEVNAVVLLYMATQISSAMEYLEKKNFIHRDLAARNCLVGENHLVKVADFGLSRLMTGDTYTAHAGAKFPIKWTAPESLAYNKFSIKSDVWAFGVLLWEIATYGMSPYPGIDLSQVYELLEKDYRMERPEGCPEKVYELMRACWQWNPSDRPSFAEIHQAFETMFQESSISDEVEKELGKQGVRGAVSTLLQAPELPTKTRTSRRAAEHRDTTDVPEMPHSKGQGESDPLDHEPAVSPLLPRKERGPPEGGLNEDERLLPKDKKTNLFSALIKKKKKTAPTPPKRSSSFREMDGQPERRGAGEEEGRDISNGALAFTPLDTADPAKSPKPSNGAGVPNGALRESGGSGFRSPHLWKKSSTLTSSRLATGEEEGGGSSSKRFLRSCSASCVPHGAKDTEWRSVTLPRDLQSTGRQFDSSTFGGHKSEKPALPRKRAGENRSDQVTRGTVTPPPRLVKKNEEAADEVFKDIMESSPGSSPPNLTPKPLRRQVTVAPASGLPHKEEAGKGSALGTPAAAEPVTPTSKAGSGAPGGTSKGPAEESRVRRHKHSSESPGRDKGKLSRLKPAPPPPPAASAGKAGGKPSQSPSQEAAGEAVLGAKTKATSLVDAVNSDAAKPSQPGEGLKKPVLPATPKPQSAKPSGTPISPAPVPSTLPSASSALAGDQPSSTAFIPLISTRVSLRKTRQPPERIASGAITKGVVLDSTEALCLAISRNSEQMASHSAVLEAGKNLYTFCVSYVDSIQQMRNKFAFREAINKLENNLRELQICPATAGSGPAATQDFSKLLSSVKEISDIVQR
Chain of UniProt Q9UM73 (whole entry, unmodified, looked up): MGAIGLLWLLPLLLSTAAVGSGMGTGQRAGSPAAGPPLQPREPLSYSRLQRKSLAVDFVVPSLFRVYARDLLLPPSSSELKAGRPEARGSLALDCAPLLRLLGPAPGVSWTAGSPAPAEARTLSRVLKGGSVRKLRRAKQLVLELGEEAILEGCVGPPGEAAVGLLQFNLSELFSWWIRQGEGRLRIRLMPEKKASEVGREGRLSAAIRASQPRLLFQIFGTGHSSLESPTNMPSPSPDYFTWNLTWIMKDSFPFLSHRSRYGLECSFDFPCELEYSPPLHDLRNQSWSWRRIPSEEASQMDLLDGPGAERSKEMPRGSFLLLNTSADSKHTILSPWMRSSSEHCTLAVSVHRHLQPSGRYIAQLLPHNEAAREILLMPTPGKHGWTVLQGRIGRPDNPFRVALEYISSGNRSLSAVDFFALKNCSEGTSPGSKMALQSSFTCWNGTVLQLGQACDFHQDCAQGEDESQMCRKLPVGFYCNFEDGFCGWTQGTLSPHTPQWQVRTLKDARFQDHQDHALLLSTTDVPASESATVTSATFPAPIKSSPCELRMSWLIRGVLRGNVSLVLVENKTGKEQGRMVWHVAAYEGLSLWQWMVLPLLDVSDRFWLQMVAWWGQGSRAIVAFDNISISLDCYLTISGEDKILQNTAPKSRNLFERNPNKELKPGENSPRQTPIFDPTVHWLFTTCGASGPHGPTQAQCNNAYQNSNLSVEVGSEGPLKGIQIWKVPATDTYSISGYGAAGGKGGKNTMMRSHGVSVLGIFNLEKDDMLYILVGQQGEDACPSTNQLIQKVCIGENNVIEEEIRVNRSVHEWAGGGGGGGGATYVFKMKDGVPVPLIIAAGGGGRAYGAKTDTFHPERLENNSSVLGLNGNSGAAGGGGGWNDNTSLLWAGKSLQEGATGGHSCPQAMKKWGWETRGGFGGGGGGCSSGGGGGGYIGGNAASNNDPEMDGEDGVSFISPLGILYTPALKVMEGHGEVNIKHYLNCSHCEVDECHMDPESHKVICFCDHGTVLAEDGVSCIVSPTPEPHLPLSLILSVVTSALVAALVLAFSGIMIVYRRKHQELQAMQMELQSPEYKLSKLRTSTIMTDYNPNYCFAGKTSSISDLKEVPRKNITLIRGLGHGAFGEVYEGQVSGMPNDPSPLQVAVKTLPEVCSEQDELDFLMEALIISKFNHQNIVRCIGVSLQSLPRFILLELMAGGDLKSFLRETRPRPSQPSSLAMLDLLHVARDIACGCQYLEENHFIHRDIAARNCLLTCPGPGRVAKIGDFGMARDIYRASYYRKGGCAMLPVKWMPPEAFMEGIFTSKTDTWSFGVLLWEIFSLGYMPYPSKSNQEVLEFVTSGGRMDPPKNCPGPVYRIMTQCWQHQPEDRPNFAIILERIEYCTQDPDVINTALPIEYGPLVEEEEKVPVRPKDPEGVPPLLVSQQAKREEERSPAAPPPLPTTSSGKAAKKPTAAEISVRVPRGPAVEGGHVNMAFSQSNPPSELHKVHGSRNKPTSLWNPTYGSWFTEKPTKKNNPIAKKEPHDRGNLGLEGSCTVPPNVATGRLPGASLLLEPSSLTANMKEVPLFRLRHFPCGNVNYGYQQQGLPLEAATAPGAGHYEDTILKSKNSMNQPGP

SMILES | target or system | test | system | conditions | how to read | measurement | value
CCCC[C@H](NC(=O)CCCCCCCNC(=O)CN1CCN(CC(=O)O)CCN(CC(=O)O)CC1)C(=O)N[C@H]1CC(=O)NCCCC[C@@H](C(N)=O)NC(=O)[C@H](Cc2c[nH]c3ccccc23)NC(=O)[C@H](CCCNC(=N)N)NC(=O)[C@@H](Cc2ccccc2)NC(=O)[C@H](Cc2c[nH]cn2)NC1=O [technetium-99m labelled] |  |  | C57 mouse, blood | intravenous, 0.037 MBq, 0.5 h |  | tissue uptake | 1.28 ± 0.35 %ID/g
COc1cccc(OC)c1-c1cc(C(=O)NC2(C(=O)O)C3CC4CC(C3)CC2C4)nn1-c1ccc(C(=O)N(C)CCOCCN(C)C(=O)[C@H](CCCCNC(=O)[C@H](CC(C)C)NC(=O)C2OC2C(=O)O)NC(=O)CN2CCN(CC(=O)[O-])CCN(CC(=O)[O-])CCN(CC(=O)[O-])CC2)cc1C(C)C.[177Lu+3] (mixture of isomers) | HT-29 tumour model |  | host not given, pancreas | 24 h, tumour-bearing |  | tracer uptake | 0.5 %ID/g
CC(C)C[C@H](NC(=O)[C@@H](CCCCNC(=O)[C@@H](Cc1ccccc1)NC(=O)CCCCCNC(=O)CN1CCN(CC(=O)O)CCN(CC(=O)O)CCN(CC(=O)O)CC1)NC(=O)[C@H](Cc1ccc(O)cc1)NC(=O)[C@H](CO)NC(=O)[C@H](Cc1c[nH]c2ccccc12)NC(=O)[C@H](Cc1c[nH]cn1)NC(=O)[C@@H]1CCC(=O)N1)C(=O)N[C@@H](CCCNC(=N)N)C(=O)N1CCC[C@H]1C(=O)NCC(N)=O [indium-111 labelled] |  |  | female athymic nude mice, heart | intravenous, 0.037 MBq, 2 h |  | tissue uptake | 0.06 ± 0.03 %ID/g
CC(C)C[C@H](NC(=O)[C@H](Cc1ccc(O)cc1)NC(=O)[C@@H](CCCNC(=N)N)NC(=O)[C@@H](CO)NC(=O)[C@H](Cc1ccccc1)NC(=O)[C@H](CC1CCCCC1)NC(=O)[C@H](CC(=O)O)NC(=O)CN1CCN(CC(=O)O)CCN(CC(=O)O)CCN(CC(=O)O)CC1)C(=O)N[C@@H](Cc1c[nH]c2ccccc12)C(=O)N[C@@H](CO)C(=O)O [copper-64 labelled] |  |  | human, bone | concentration not given, 1 h |  | activity concentration | 1100 Bq/mL and 614 Bq/mL and 560 Bq/mL and 764 Bq/mL and 574 Bq/mL and 454 Bq/mL
Cc1cc(=O)c2c(O)c3c(O[C@@H]4O[C@H](CO)[C@@H](O)[C@H](O)[C@H]4O)cc(O)cc3cc2o1 | HepaRG co-cultured with HK-2 | MTT |  | 266.67 µM, 48 h | baseline: untreated control | cell viability | 39.7 ± 6.21%
N#C[C@@H]1CC(F)(F)CN1C(=O)CNC(=O)c1ccnc2c(NC(=O)CCOCCOCCOCCOCCOCCOCCNC(=O)[C@H](CCCCNC(=O)CN3CCN(CC(=O)[O-])CCN(CC(=O)[O-])CCN(CC(=O)[O-])CC3)NC(=O)CCCc3ccc(I)cc3)cccc12.[177Lu+3] | U-87 MG tumour model |  | host not given, pancreas | 4 h, tumour-bearing |  | tracer uptake | 2.21 %ID/g
CC(=O)N[C@H](C(=O)N[C@H](C(=O)N[C@@H](CCCNC(=N)N)C(=O)N[C@@H](CC(N)=O)C(=O)N[C@@H](CC(=O)O)C(=O)N[C@H](C(=O)N1CCC[C@@H]1C(=O)N1CCC[C@H]1C(=O)N[C@@H](CC(=O)O)C(=O)N[C@@H](CO)C(=O)N[C@@H](CC(C)C)C(=O)N[C@@H](CC(C)C)C(=O)N[C@H](C(=O)N[C@@H](Cc1ccccc1)C(N)=O)C(C)C)C(C)C)[C@@H](C)O)C(C)C | HEK-293T | subcellular fractionation LC-MS | nuclear fraction | 20 µM, 2 h |  | concentration | not detected
O=C(CCC(F)(F)F)Nc1ccc([C@H]2[C@@H](F)[C@@H](F)C[C@@H](F)[C@H]2F)cc1 |  | liver microsome stability | dog liver microsomes | 1 µM |  | hepatic clearance | 9.3 mL/min/kg
CCN(CC)CC#CCNc1ccnc2cc(Cl)ccc12 | Salmonella typhimurium | mini-Ames test | TA102 | 125.0 µg/well, without S9 |  | revertants per well | 73
CC(C)OCCOCc1ccc(OCC(O)CN(N=O)C(C)C)cc1 (stereo not drawn) | Salmonella typhimurium | Ames test | TA98 | 158 µg/plate, 30 % rat S9 | baseline: solvent control | revertant fold increase | 0.9 fold
O=C(CC(F)(F)F)Nc1ccc([C@H]2[C@@H](F)[C@@H](F)C[C@@H](F)[C@H]2F)cc1 |  | liver microsome stability | rat liver microsomes | 1 µM |  | hepatic clearance | 11 mL/min/kg
Nc1ncc(-c2cc(-c3cnn(CC(F)(F)F)c3)ncc2F)nc1C(=O)NC1CNCC(F)C1 (stereo not drawn) | DRAK2 | KINOMEscan |  | 1 µM | baseline: DMSO control | remaining binding | 34%
O=C(Nc1cnccc1-c1ccc([18F])cc1)c1ccnc(NC(=O)C2CC2)c1 |  |  | mice, transgenic, GSK-3β, early-stage, stomach | intravenous, dose not given, 120 min |  | SUV | 0.31
N#C[C@@H]1CC(F)(F)CN1C(=O)CNC(=O)c1ccnc2c(NC(=O)[C@H](CCCCNC(=O)CCOCCOCCOCCOCCOCCOCCNC(=O)CN3CCN(CC(=O)[O-])CCN(CC(=O)[O-])CCN(CC(=O)[O-])CC3)NC(=O)CCCc3ccc(I)cc3)cccc12.[177Lu+3] | U-87 MG tumour model |  | host not given, bone | 24 h, tumour-bearing |  | tracer uptake | 2.93 %ID/g
Nc1nc2cc(C(=O)c3ccc(F)cc3)ccc2[nH]1 | Salmonella typhimurium | Ames preincubation test | TA1535 | 39.0 µg per plate, 3 days, without S9 |  | revertants | 18.3 revertants per plate
CCCC[C@H](NC(=O)COCCOCCNC(=O)CN1CCN(CC(=O)O)CCN(CC(=O)O)CC1)C(=O)N[C@H]1CC(=O)NCCCC[C@@H](C(N)=O)NC(=O)[C@H](Cc2c[nH]c3ccccc23)NC(=O)[C@H](CCCNC(=N)N)NC(=O)[C@@H](Cc2ccccc2)NC(=O)[C@H](Cc2c[nH]cn2)NC1=O [technetium-99m labelled] |  |  | C57 mouse, intestine | intravenous, 0.037 MBq, 24 h |  | tissue uptake | 0.83 ± 0.67 %ID
C=C(NC(=O)c1csc(-c2nc3c(cc2O)-c2nc(cs2)C(=O)NC(C(C)O)C(=O)NC(=C(C)OC)c2nc(cs2)C(=O)NC2c4nc(cs4)C(=O)NC(COC(=O)c4c5c6c(cccc6n4O)COC(=O)C(OC4CC(C)(O)C(N(C)C)C(C)O4)C2OC5)c2nc-3cs2)n1)C(N)=O (stereo not drawn) |  |  | Sprague-Dawley rat, male, plasma | intravenous infusion, 6 mg/kg single dose |  | volume of distribution | 28.4 L/kg
Nc1ncc(-c2ccc([C@H]3[C@@H](F)[C@@H](F)C[C@@H](F)[C@H]3F)cc2)cn1 |  | liver microsome stability | mouse liver microsomes | 1 µM |  | hepatic clearance | 15 mL/min/kg
CNC(=O)C1CCCN(C(=O)C2CC3CCC2N3C(=O)[C@@H]2C[C@@H](O)CN2C(=O)NCc2cccc(Cl)c2F)C1 (mixture of isomers) | Cytochrome P450 1A2 (CYP1A2, Homo sapiens, UniProt P05177) | preincubation without NADPH | human | 16.7 µM | baseline: negative control | remaining activity | 98.3% and 101% and 98.5%
c1cc(C2CCCCC2)ccc1-c1cnc(N2CCOCC2)nc1 |  | liver microsome stability | mouse liver microsomes | 1 µM |  | hepatic clearance | 56 mL/min/kg
Cc1nn(-c2cccc(N)c2)c(=O)c2cnc(Nc3ccc(N4CCNCC4)cc3)nc12 | Tyrosine-protein kinase ABL1 (ABL1, Homo sapiens, UniProt P00519, E255K) | enzyme activity, inhibitor |  |  |  | IC50 | 467 nM
CCn1nc(Cl)c2c1-c1cnc(N)c(c1)O[C@H](C)c1cc(F)ccc1-c1nn(C)cc1C2 | ALK tyrosine kinase receptor (ALK, Homo sapiens, UniProt Q9UM73, R1275Q) | enzyme activity, inhibitor |  | together with: 1 mM ATP |  | IC50 | 0.8 nM
C=C1CC[C@H](OCCCNC(=O)CCOCCOCCOCCOCCOCCOCCOCCOCCOCCOCCOCCOCCOCCOCCOCCOCCOCCOCCOCCOCCOCCOCCOCCOCCOCCOCCOCCOCCOCCOCCOCCOCCOCCOCCOCCOCCNC(=O)CCN2C(=O)CC(SC[C@H](NC(=O)[C@H](Cc3ccccc3)NC(=O)[C@H](CC(N)=O)NC(=O)[C@H](Cc3c[nH]cn3)NC(=O)[C@@H](NC(=O)[C@H](CC(=O)O)NC(=O)[C@H](CCC(N)=O)NC(=O)[C@H](CC(C)C)NC(=O)[C@H](CCCCN)NC(=O)[C@H](CCCCN)NC(=O)[C@H](CCCNC(=N)N)NC(=O)[C@H](CC(C)C)NC(=O)[C@H](Cc3c[nH]c4ccccc34)NC(=O)[C@H](CCC(=O)O)NC(=O)[C@@H](NC(=O)[C@H](CCCNC(=N)N)NC(=O)[C@H](CCC(=O)O)NC(=O)[C@H](CCSC)NC(=O)[C@H](CO)NC(=O)[C@H](CC(N)=O)NC(=O)[C@H](CC(C)C)NC(=O)[C@H](Cc3c[nH]cn3)NC(=O)[C@H](CCCCN)NC(=O)CNC(=O)[C@H](CC(C)C)NC(=O)[C@H](CC(N)=O)NC(=O)[C@H](Cc3c[nH]cn3)NC(=O)[C@H](CCSC)NC(=O)[C@H](CC(C)C)NC(=O)[C@H](CCC(N)=O)NC(=O)[C@@H](NC(=O)[C@H](CCC(=O)O)NC(=O)[C@H](CO)NC(=O)[C@@H](NC(=O)[C@@H](N)CO)C(C)C)[C@@H](C)CC)C(C)C)C(C)C)C(=O)O)C2=O)C/C1=C/C=C1\CCC[C@]2(C)[C@@H]([C@H](C)CCCC(C)(C)O)CC[C@@H]12 (stereo partly drawn) |  |  | male Sprague-Dawley rat, plasma | intravenous, 100 µg/kg, single dose |  | half-life | 8.43 h
N#Cc1cccc(-c2ccc([C@H]3[C@@H](F)[C@@H](F)C[C@@H](F)[C@H]3F)cc2)c1 |  | liver microsome stability | rat liver microsomes | 1 µM |  | hepatic clearance | 6.1 mL/min/kg

Repeated from above:
SMILES | target or system | test | system | conditions | how to read | measurement | value
Nc1ncc(-c2ccc([C@H]3[C@@H](F)[C@@H](F)C[C@@H](F)[C@H]3F)cc2)cn1 |  | liver microsome stability | mouse liver microsomes | 1 µM |  | hepatic clearance | 15 mL/min/kg
CNC(=O)C1CCCN(C(=O)C2CC3CCC2N3C(=O)[C@@H]2C[C@@H](O)CN2C(=O)NCc2cccc(Cl)c2F)C1 (mixture of isomers) | Cytochrome P450 1A2 (CYP1A2, Homo sapiens, UniProt P05177) | preincubation without NADPH | human | 16.7 µM | baseline: negative control | remaining activity | 98.3% and 101% and 98.5%
c1cc(C2CCCCC2)ccc1-c1cnc(N2CCOCC2)nc1 |  | liver microsome stability | mouse liver microsomes | 1 µM |  | hepatic clearance | 56 mL/min/kg
Cc1nn(-c2cccc(N)c2)c(=O)c2cnc(Nc3ccc(N4CCNCC4)cc3)nc12 | Tyrosine-protein kinase ABL1 (ABL1, Homo sapiens, UniProt P00519, E255K) | enzyme activity, inhibitor |  |  |  | IC50 | 467 nM
